Assay results from different studies.
± marks the error that the study gave.
B1: ceruloplasmin; sequence looked up; chain KEKHYYIGIIETTWDYASDHGEKKLISVDTEHSNIYLQNGPDRIGRLYKKALYLQYTDETFRTTIEKPVWLGFLGPIIKAETGDKVYVHLKNLASRPYTFHSHGITYYKEHEGAIYPDNTTDFQRADDKVYPGEQYTYMLLATEEQSPGEGDGNCVTRIYHSHIDAPKDIASGLIGPLIICKKDSLDKEKEKHIDREFVVMFSVVDENFSWYLEDNIKTYCSEPEKVDKDNEDFQESNRMYSVNGYTFGSLPGLSMCAEDRVKWYLFGMGNEVDVHAAFFHGQALTNKNYRIDTINLFPATLFDAYMVAQNPGEWMLSCQNLNHLKAGLQAFFQVQECNKSSSKDNIRGKHVRHYYIAAEEIIWNYAPSGIDIFTKENLTAPGSDSAVFFEQGTTRIGGSYKKLVYREYTDASFTNRKERGPEEEHLGILGPVIWAEVGDTIRVTFHNKGAYPLSIEPIGVRFNKNNEGTYYSPNYNPQSRSVPPSASHVAPTETFTYEWTVPKEVGPTNADPVCLAKMYYSAVEPTKDIFTGLIGPMKICKKGSLHANGRQKDVDKEFYLFPTVFDENESLLLEDNIRMFTTAPDQVDKEDEDFQESNKMHSMNGFMYGNQPGLTMCKGDSVVWYLFSAGNEADVHGIYFSGNTYLWRGERRDTANLFPQTSLTLHMWPDTEGTFNVECLTTDHYTGGMKQKYTVNQCRRQSEDSTFYLGERTYYIAAVEVEWDYSPQREWEKELHHLQEQNVSNAFLDKGEFYIGSKYKKVVYRQYTDSTFRVPVERKAEEEHLGILGPQLHADVGDKVKIIFKNMATRPYSIHAHGVQTESSTVTPTLPGETLTYVWKIPERSGAGTEDSACIPWAYYSTVDQVKDLYSGLIGPLIVCRRPYLKVFNPRRKLEFALLFLVFDENESWYLDDNIKTYSDHPEKVNKDDEEFIESNKMHAINGRMFGNLQGLTMHVGDEVNWYLMGMGNEIDLHTVHFHGHSFQYKHRGVYSSDVFDIFPGTYQTLEMFPRTPGIWLLHCHVTDHIHAGMETTYTVLQNEDTKSG

The recovery yield of `FWNWHHFKG` is reported as 43.9% (adeno-associated virus 9; capsid binding, bind-and-elute chromatography; peptide; peptide ligand resin, MgCl2 elution).
`NSRQTDR` has an inhibition of 0% (peptide, human polyclonal IgM RF CLAU; concentration not given, 5 µg/mL mAb II-481 coated, added: RF at 50% max binding concentration).
`AGGCATACAAGCACCTGCTGGAGCTTCGCCTGGAGAACGGGCCGATGGAGCACGACGCGGCGGTGGCAGCACTGAAGGAATGGTGGGCTCAGCACCCGGACAACGCATGAGAACGGGCGGCACGTTTCACGTGAAACGTGCCGCCCGCGGGTCATGTTTCACGTGAAACATGACCGTGAAGCAGAACACGGAGAGTGGTCTGTGCCTCAGGCCTCGCCGAGGCAGAGCAGGAACTCTTCACCGTCGCCGGTTTCGGCGTAGAAGCCGGTGGCTCCGTCGACCTTCCGGCACTCCGTCTCG (dsDNA)` gave a Kd of 0.0333 µM (Partitioning or sporulation protein full length assumed (Streptomyces coelicolor, UniProt Q9S6U1); EMSA; double-stranded DNA, one strand shown; Hill fit).
`anthraquinone-neomycin` has a Tm of 64 °C (poly(dA)•2poly(dT) triplex; triplex to duplex melting, UV thermal denaturation; concentration not given, pH 5.5, KCl 150 mM).
The Kd of `O=CNCC(=O)NC(CO)C(O)c1ccc([N+](=O)[O-])cc1` (centres unmarked) is reported as 45 ± 6 µM (Escherichia coli 70S ribosome; binding, fluorescence polarization; added: BODIPY-erythromycin 4 nM).
With `CC(C)=CCC/C(C)=C/Cn1ccn2cc(C(=O)NCc3ccc(F)cc3F)c(=O)c(O)c2c1=O` the EC50 was over 0.02 µM (HIV-1 integrase wild type; viral replication; HOS, HIV-1; single-round vector).
`Aprotinin` — result for “apparent oxytocin concentration”: 0.9 ± 0.4 pg/mL (anti-oxytocin rabbit polyclonal IgG; cross-reactivity, oxytocin EIA, Enzo; 3 µg/mL).
`CCc1c(C(=O)NCCc2ccc(N3CCCCC3)cc2)[nH]c2ccc(Cl)cc12` — result for ERK1/2 phosphorylation: “no effect” (cannabinoid CB1 receptor; HEK293-A; 1 nM to 10 µM, 10 min, no orthosteric agonist).
`Transthyretin` — result for “apparent oxytocin concentration”: 1.8 ± 2.4 pg/mL (anti-oxytocin rabbit polyclonal IgG; cross-reactivity, oxytocin EIA, Enzo; 3 µg/mL).
`O=C(N[C@H](CO)[C@H](O)c1ccc([N+](=O)[O-])cc1)C(Cl)Cl` has a Kd of 2.8 ± 0.5 µM (Escherichia coli 70S ribosome; binding, fluorescence polarization; added: BODIPY-erythromycin 4 nM).
`CC(=O)OCC[N+](C)(C)C` has an EC50 of 33 ± 22 µM (nicotinic acetylcholine receptor, mouse; [3H]GABA release, agonist; superior colliculus synaptosomes; low-sensitivity component).
`Clc1cnc(Oc2ccc(Oc3ncc(Cl)cc3Cl)cc2)c(Cl)c1` — result for “deuterium exchange change”: -32% (mouse CAR LBD in CAR:RXR; binding, HDX-MS; concentration not given, 10 to 3600 s, pH 8, 4 °C, residues 330-338, helix H10; relative to: unliganded CAR:RXR).
For `C[C@@H](O)[C@H]1C(=O)N2C(C(=O)O)=C(S[C@@H]3CN[C@H](C(=O)N(C)C)C3)[C@H](C)[C@H]12`, the apparent IC50 was 5.1 ± 2.7 µM (PBP5/6 Escherichia coli; Bocillin-FL binding, inhibitor; Escherichia coli, MG1655; 30 min, Tris-EDTA permeabilised, added: Bocillin-FL 25 µM).
`CC(C)C(N)C(=O)NC(CO)C(O)c1ccc([N+](=O)[O-])cc1` (centres unmarked) has a Kd of 34 ± 8 µM (Escherichia coli 70S ribosome; binding, fluorescence polarization; added: BODIPY-erythromycin 4 nM).
With `CN(C)CCCn1cc(C2=C(c3c[nH]c4ccccc34)C(=O)NC2=O)c2ccccc21` the phosphorylation level was 93 ± 4% (Yes kinase, rat; TPA-stimulated phosphorylation, PKC inhibitor, measured: Yes pY416; 5 µM, 2.5 min, pretreatment, added: TPA 1 µM; relative to: TPA alone).
`FWWAAFFKG` gave a recovery yield of 53.7% (adeno-associated virus 9; capsid binding, bind-and-elute chromatography; peptide; peptide ligand resin, MgCl2 elution).
With `NCCS` the EC50 was 440 ± 90 µM (ELIC G218F; channel gating, agonist, two-electrode voltage clamp; Xenopus oocytes).
`O=C1C=C(N(Cc2ccc(Cl)nc2)CC(F)F)CO1` has an EC50 of 2.3 µM (nicotinic acetylcholine receptor Spodoptera frugiperda; ion current, agonist, whole-cell voltage clamp; isolated Spodoptera frugiperda neurons).
Under “Msr activity increase”, `[Met(O)35]Aβ42` is recorded as 27 ± 11% (methionine sulfoxide reductase (rat); HPLC, dabsyl-Met(O); rat primary cortical neurons; 10 µM, 24 h; relative to: untreated cells).
`N[C@H](Cc1c[nH]cn1)C(=O)N[C@H](CO)[C@H](O)c1ccc([N+](=O)[O-])cc1` gave a Kd of 2.9 ± 0.8 µM (Escherichia coli 70S ribosome; binding, fluorescence polarization; added: BODIPY-erythromycin 4 nM).
With `CCCOC(=O)Cc1ccc(OCC(=O)N(CC)CC)c(OC)c1` the EC50 was 26 µM (GABA-A receptor rat; GABA-evoked chloride current, positive allosteric modulator, whole-cell patch clamp; embryonic rat cortical neurons; pH 7.4, holding -60 mV, added: GABA 5 µM).
With `myricitrin` the IC50 was 25 µM (class I HDAC (bovine); enzyme activity, inhibitor; bovine heart tissue lysate).
`B1 (ceruloplasmin)` — result for “apparent oxytocin concentration”: 2.2 ± 0.5 pg/mL (anti-oxytocin rabbit polyclonal IgG; cross-reactivity, oxytocin EIA, Enzo; 3 µg/mL).
`c1cnc2c(c1)ccc1cccnc12` has a remaining activity of under 1% (Staphylococcus aureus BstA; 1 mM, added: mBCl 50 µM, BSH 50 µM).
`CC(C)[C@H](NC(=O)CNC(=O)CNC(=O)CNC(=O)[C@H](CCCNC(=N)N)NC(=O)[C@H](CCCNC(=N)N)NC(=O)[C@H](CCCNC(=N)N)NC(=O)[C@H](CCC(N)=O)NC(=O)[C@H](CCCNC(=N)N)NC(=O)[C@H](CCCNC(=N)N)NC(=O)[C@H](CCCCN)NC(=O)[C@H](CCCCN)NC(=O)[C@H](CCCNC(=N)N)NC(=O)CNC(=O)[C@@H](N)Cc1ccc(O)cc1)C(=O)N[C@H](C(=O)N[C@H](C(=O)N[C@@H](C)C(=O)O)[C@@H](C)O)C(C)C` — result for protein interaction: “inhibited” (ClpP and alpha-synuclein (human); inhibitor, co-immunoprecipitation; HEK293T cells).
With `CC(C)=CCc1c(O)cc(/C=C/c2ccccc2)cc1O` the IC50 was over 25 µg/mL (Sp1 (human); reporter gene, inhibitor; SW1353; control transcription factor).
`NC(Cc1ccc(O)cc1)C(=O)NC(CO)C(O)c1ccc([N+](=O)[O-])cc1` (centres unmarked) gave a Kd of 8.2 ± 1.5 µM (Escherichia coli 70S ribosome; binding, fluorescence polarization; added: BODIPY-erythromycin 4 nM).
`Apolipoprotein B`: “apparent oxytocin concentration” 3.5 ± 0.8 pg/mL (anti-oxytocin rabbit polyclonal IgG; cross-reactivity, oxytocin EIA, Enzo; 3 µg/mL).
The Kd of `CC(=O)NC(CCCNC(=N)N)C(=O)NC(CO)C(O)c1ccc([N+](=O)[O-])cc1` (centres unmarked) is reported as 26 ± 10 µM (Escherichia coli 70S ribosome; binding, fluorescence polarization; added: BODIPY-erythromycin 4 nM).
With `cholecystokinin octapeptide` the phosphorylation level was 293 ± 24% (Yes kinase, rat; measured: Yes pY416; 100 nM, 1 min, no PKC inhibitor; relative to: untreated control).
With `CC(=O)N1CCN(c2ccc(OCC3COC(Cn4ccnc4)(c4ccc(Cl)cc4Cl)O3)cc2)CC1` (centres unmarked) the remaining activity was 24 ± 1.6% (Leishmania infantum CYP51; concentration not given).
`melittin`: “free energy of partitioning” -6.8 kcal/mol (CD titration; POPC 90% POPG 10% vesicles; pH 7.0, 25 °C).
For `CC(=O)C[C@@H](c1ccccc1)c1c(O)c2ccc(O)cc2oc1=O`, the Kss was 1310 µM (UGT; measured: 7-glucuronide; human liver microsomes; second binding site).
For `Arginine vasopressin`, “apparent oxytocin concentration” read 25.2 ± 2.9 pg/mL (anti-oxytocin rabbit polyclonal IgG; cross-reactivity, oxytocin EIA, Enzo; 3 µg/mL).
`Oc1cccc(/C=C/c2ccccc2)c1` gave an IC50 of over 25 µg/mL (Sp1 (human); reporter gene, inhibitor; SW1353; control transcription factor).

Some of these lines once more:
`c1cnc2c(c1)ccc1cccnc12` has a remaining activity of under 1% (Staphylococcus aureus BstA; 1 mM, added: mBCl 50 µM, BSH 50 µM).
`B1 (ceruloplasmin)` — result for “apparent oxytocin concentration”: 2.2 ± 0.5 pg/mL (anti-oxytocin rabbit polyclonal IgG; cross-reactivity, oxytocin EIA, Enzo; 3 µg/mL).
For `Arginine vasopressin`, “apparent oxytocin concentration” read 25.2 ± 2.9 pg/mL (anti-oxytocin rabbit polyclonal IgG; cross-reactivity, oxytocin EIA, Enzo; 3 µg/mL).
